Published values pooled from the literature.
Each numbered part is a random draw from the data of one study; scales do not carry over between parts. Positions count from the first letter of the parent shown.

Sample 1
Target: Histone acetyltransferase KAT6A, winged helix 2, GST fusion (KAT6A, Homo sapiens, UniProt Q92794, residues 85-181)
Method: protein binding microarray
Form: double-stranded DNA, one strand shown
Sample: in vitro
Tested at: not given
Setting: 8-mer, flanks averaged, mean of 2 arrays, mostly near background
Baseline: not given
Direction: higher = stronger binding
Endpoint: E-score
Construct (chain): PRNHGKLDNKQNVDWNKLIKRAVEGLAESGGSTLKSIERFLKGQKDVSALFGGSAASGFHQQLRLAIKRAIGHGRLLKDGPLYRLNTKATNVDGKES
CGAACGAG: -0.142
GTATAACA: -0.0336
AAAGAGGT: 0.0364
GGGACCTA: 0.0834
AGTTAATG: -0.0592
TGCCGTAA: -0.0377
CGCAAAAA: 0.149
ACACAGGG: 0.0232
CGCCGGCG: 0.296
CCACGTGA: -0.175
CGACAGAC: -0.0397
TGCAGACA: 0.0559
GTGTTCAA: 0.0327
GCAAGAAC: 0.111
ACGGACCT: 0.0305
ACCACAGG: -0.056
ATCTCGGG: 0.111
CAAGGGGC: 0.192
GGAGAAAC: 0.0822
ACCCCTGC: -0.0902
AGGCGAAG: 0.0674

Sample 2
Target: CCNB3, cyclin fold, Cln2 fusion (human)
Method: yeast growth competition, sequencing
Sample: yeast
Setting: weak parent motif
Baseline: not given
Direction: higher = stronger binding
Endpoint: normalised enrichment score
Starting sequence: SLBP docking peptide (human); ARYKRKLLINDFG; partner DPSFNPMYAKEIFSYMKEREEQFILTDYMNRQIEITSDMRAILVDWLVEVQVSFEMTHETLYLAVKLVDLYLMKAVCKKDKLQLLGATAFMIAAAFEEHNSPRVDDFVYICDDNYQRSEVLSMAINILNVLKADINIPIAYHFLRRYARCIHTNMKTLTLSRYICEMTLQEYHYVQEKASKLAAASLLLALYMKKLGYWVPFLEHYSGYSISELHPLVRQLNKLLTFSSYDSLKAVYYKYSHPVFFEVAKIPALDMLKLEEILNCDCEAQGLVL
ARYKRKLLIFDFG [N10F]: 0.522
ARYKDKLLINDFG [R5D]: 0.255
AQYKRKLLINDFG [R2Q]: 0.68
ARHKRKLLINDFG [Y3H]: 0.0765
ARYKRKLLITDFG [N10T]: 0.13
ARYKRKLLINDFI [G13I]: -0.072
ARYKRKLRINDFG [L8R]: -0.422
ARYKRKLLLNDFG [I9L]: 0.378
DRYKRKLLINDFG [A1D]: 0.667
KRYKRKLLINDFG [A1K]: -0.39
ARYKRYLLINDFG [K6Y]: 0.13
ARYKRKLLINDFM [G13M]: 0.383
ARYQRKLLINDFG [K4Q]: 0.229
ARYGRKLLINDFG [K4G]: 0.263

Sample 3
Target: RING finger protein unkempt homolog, zinc fingers 1-6, GST-SBP tag (UNK, Homo sapiens, UniProt Q9C0B0, residues 30-357)
Chain of UniProt Q9C0B0 (30-357, looked up): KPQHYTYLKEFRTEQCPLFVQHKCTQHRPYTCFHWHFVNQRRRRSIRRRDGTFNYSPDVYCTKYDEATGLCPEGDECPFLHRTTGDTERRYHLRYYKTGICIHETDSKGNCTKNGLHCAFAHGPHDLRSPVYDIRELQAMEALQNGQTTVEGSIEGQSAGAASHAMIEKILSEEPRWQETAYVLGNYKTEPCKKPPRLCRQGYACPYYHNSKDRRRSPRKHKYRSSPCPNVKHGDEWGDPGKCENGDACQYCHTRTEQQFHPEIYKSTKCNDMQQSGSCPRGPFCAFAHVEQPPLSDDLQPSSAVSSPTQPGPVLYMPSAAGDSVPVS
Method: RNA Bind-n-Seq
Form: RNA
Sample: in vitro
Tested at: not given
Setting: RNA with constant flanks, human-mouse chimeric sites, ends assumed
Baseline: input RNA pool
Direction: higher = stronger binding
Endpoint: bound/input enrichment
Shared flanks, not repeated: GGGAGUUCUACAGUCCGACGAUC … CAACAGAGGAUUGAGCAUCA
GUAUUUGUGCGCUCCCCACUCGUGUUUUUAAGUGUAUUUUUAUAAGAUACAUGUAUUUACAAUUGAGCUUUUGUUACUAUAAUACUGAAUGCUACUGGAGAUUAUGAAAAAUGUUUCAAU: 0.158 ratio
GGACAUCUGUCAAAUUGUAUUUCCCGUGUGAAACAAGUGAACACUCUGAUACACUUCAUUUAGUUGUACAUCUGUAUGAUAGAGAAAUGUAAAUAUGUUAAUCCAAGCAAUGUGUCACUU: 0.31 ratio
AAAGAACUUGCUGAUGAAGAAGAGGAAGAAGACAAUGAUGAUGUUGAACCCAUUUCUGAAUUUCGAUUUGUGCCCAGUGAUAAGUCAGCAUUGGAGGCGAUGUUCACAGCAAUGUGUGAG: 0.382 ratio
CCAAUUGUGGAGCAGUACUUGAAGACAAAGAAAAAUUCUAGUCAUUUAAUCAUCAAGUACAUUAGCUGCCGGCUGGUGACACUCAUCAUUAUACUGUUAGCGUGUAUCUACCUGGGCUAU: 0.508 ratio
CUCAGAGAUGUGGCAUAUCAGUAUGUGAAAAAGGGGGCUCGUAUAUUUGUGGAAGGGAAAGUGGACUAUGGUGAAUACAUGGAUAAAAACAAUGUGAGGCGGCAAGCAACAACAAUCAUA: 0.364 ratio
AGUGUGCAGGAAUUCAUGACCUUUACAAGUCAACUGAUUGUGGAACGCUCGGGGAAAGGCAGCAGAGCUUCUGUCAAAGAACAAGACUAUCUUUGCCACGUCUACGUCCGGAGCGACAGU: 0.117 ratio
GCUCUUGGGAAUGUAAUAAGUGCCUUGGGGGACAAGAGCAAGAGAGCCACACAUGUCCCUUACAGAGACUCUAAGCUGACAAGACUCUUGCAGGAUUCCCUUGGGGGUAACAGCCAAACC: 0.116 ratio
CCCCAAUACCAUUUGCAGGUCUGGAACCUGCAUUCUUUUUUUAAAAAACAUGUAUACAUUUUAGGGCUGUAGAUUUAUUUUCCUGGUUUCUUUUCCAAUUGCUGACUUUUGAGCACAGAA: 1.78 ratio

Single results of other studies
PhoQ, residues 284 288 289 292 302 303 TASMAF  fold induction (PhoP, residues 12 14 15 18 19 IFFTR (Escherichia coli, UniProt P23836); Sort-seq, item: YFP reporter; E. coli; PhoQ-PhoP variant library, with: 10 µM Mg2+; baseline: high Mg2+ state, higher = stronger signaling): 18.6

Repeated from above (sample 2):
ARYQRKLLINDFG [K4Q]: 0.229
ARYKRKLLINDFM [G13M]: 0.383
ARYKRKLLLNDFG [I9L]: 0.378
AQYKRKLLINDFG [R2Q]: 0.68
ARYKRKLLIFDFG [N10F]: 0.522
DRYKRKLLINDFG [A1D]: 0.667
